Results pooled from the literature.
Each numbered part is a random draw from the data of one study; scales do not carry over between parts.

Sample 1
Target: RING finger protein unkempt homolog, zinc fingers 1-6, GST-SBP tag (UNK, Homo sapiens, UniProt Q9C0B0, residues 30-357)
Method: RNA Bind-n-Seq
Form: RNA
Matrix: in vitro
Concentration: not given
Notes: RNA with constant flanks, human and mouse sites, ends assumed
Baseline: input RNA pool
Direction: higher = stronger binding
Shared flanks, not repeated: GGGAGUUCUACAGUCCGACGAUC … CAACAGAGGAUUGAGCAUCA
Residues (chain): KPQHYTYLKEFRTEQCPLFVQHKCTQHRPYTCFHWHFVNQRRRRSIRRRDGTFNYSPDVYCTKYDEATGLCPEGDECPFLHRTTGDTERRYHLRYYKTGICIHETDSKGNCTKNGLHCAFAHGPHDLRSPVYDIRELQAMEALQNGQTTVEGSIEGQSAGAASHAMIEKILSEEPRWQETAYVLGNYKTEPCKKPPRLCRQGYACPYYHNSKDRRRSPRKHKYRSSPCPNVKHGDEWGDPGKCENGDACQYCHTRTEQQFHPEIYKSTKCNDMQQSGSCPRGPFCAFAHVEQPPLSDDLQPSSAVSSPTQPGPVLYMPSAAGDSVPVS
The bound/input enrichment of `CUCCCUCAACCAAUAUAUAGACACAUAGCAUCUUUCCUGUCAGUCUUCAAACUAGUAUUAAUAGGCUUAAUAAUUGUUGGCAAGGAUCCUUUUGCUUUCUUUGGCAUGCAAGCUCCUAGC` is reported as 75.6 ratio.
For `GUCAAUUUUAAAAUUAUGUGGAACAUACGUUUUCUGCUGAAAAUUAUGCUAGACUUAAAAUUGAGUGGCCUUGGUCCACUUUGCUGUGUUGUUUUUGUCAUUGAAAAUAAAUAAAACUUU`, the bound/input enrichment was 0.8 ratio.
`ACUGAAUUAAAUCAUCAUGCAUAUUUAUUUCUCCAAAGCACCUUUGACAAGCAUGAUUUGGAUAGAGACUGUGCUUUGUCACCUGAUGAGCUUAAAGAUUUAUUUAAAGUUUUCCCUUAC` has a bound/input enrichment of 0.196 ratio.
The bound/input enrichment of `GAGACAACAUUGGCAUGGCUUUGUUUUUUUAAAUUUUUUUUAAAGUUUUUUUUUUUUUUUUUUUUUUUUUUUUUAAGUUUUUUUGUUUUGUUUUGGCGCUUUUGACUCAGGAUUUAAAAA` is reported as 3.36 ratio.
`CUCCAUUUCUUCUCAUUUUGUGGCCUCGGGCUCCACCAGCUGCUCCCCAGUGACAGUCCCUAGCUUCCUUCUACCAUCUACUGACUGUCUCCACUGAGCCUUUCCUACCUUCCCUUCACA` gave a bound/input enrichment of 0.464 ratio.
The bound/input enrichment of `UCCACGCCUGAGUUCUACCAAGUAUGCCACACCAAAAAGGAUUAUGAAGAAAUUGGACCUAGCAUUUGUCGUCACAAUCCAGUGUUUGGAGUCAUGUCGUAAAAUUGGCUUCAUAGUUAU` is reported as 8.8 ratio.
`ACCUUCAUUUAACUCAGCUGUCAAUCAGGAAGGUAUUACGUCAAAUGCCAAUAAUGGAUCUACGGCGGCUCAUAAUACUUAUGAUGAGAUUGAAGGAGGUGGCUUCUUGGCAACACCACA` has a bound/input enrichment of 0.203 ratio.
The bound/input enrichment of `CUGGCAUCUGUGAAGAUUUCUAAAGUGAAAUACGUUAUCUGGUCAGCAGACAUGUCACAUGUAGCACUACUAGCCAAACACGCCAUUGUGAUCUGUAACCGCAAACUGGAUGCUUUAUGU` is reported as 0.172 ratio.
For `UUGGGUCCCAAAGGAGAUGGUCAUUAUCCAUGGAGUUGUCCAGUGACUCAUACACGGGAAAAAAUUUAUGCCAUCUGUUCGGACUAUGCCUUUCUCAACCAGGCGACCUCAAUCUAUAAA`, the bound/input enrichment was 0.0869 ratio.
`UCAUUUACAAGGAUUAUUUUAAUGAGGAAAAUGAGUCACUGAAGUCACAUGUUCUAACAGGAAGGAAGACUUCAAGAAGUCAUUGAAACCCUUCUCUCUCUGGAAAAGCAGACUCGUACU` gave a bound/input enrichment of 0.102 ratio.
`CGGCCCAUGCAGCAGAUGCAACCCACUGCUCCCAGGAACAGUAAUCUCCGUGAACUCCCCAUAGCACCUUCACAUGUUUUGGAGAUGAGUGGUAACCGAUGCUCCUCUACACCUGUUGCU` has a bound/input enrichment of 0.393 ratio.

Sample 2
Target: Sal-like protein 4, full length isoform B (SALL4, Homo sapiens, UniProt Q9UJQ4-2, residues 1-616)
Method: universal PBM
Form: double-stranded DNA, one strand shown
Matrix: in vitro
Concentration: not given
Notes: 8-mer, flanks averaged, mean of replicates
Direction: higher = stronger binding
The E-score of `ACGTCATA` is reported as 0.303.
For `CCAGTCGG`, the E-score was -0.215.
`AATGAGGA` has an E-score of -0.0227.
`CTATCTTC` has an E-score of 0.144.
The E-score of `GCGTCACC` is reported as -0.293.
The E-score of `CAATATGG` is reported as 0.18.
The E-score of `CATAACCG` is reported as 0.129.
For `AAGGTAGG`, the E-score was 0.0326.
`CGGGTCAG` gave an E-score of -0.237.
The E-score of `TGACCGAA` is reported as -0.142.
With `CCTCACTA` the E-score was -0.0285.
With `CTTTCCTC` the E-score was -0.0245.
The E-score of `ATTTTAGG` is reported as 0.21.
For `AGTTGGAA`, the E-score was -0.0551.
For `CCGGACCC`, the E-score was -0.35.
`CCTACAAC` has an E-score of 0.0258.
The E-score of `CATTCCTC` is reported as -0.0301.
For `AAGAATCC`, the E-score was -0.00708.
With `AACTGCAT` the E-score was 0.15.
With `CTTTACAC` the E-score was 0.0839.
The E-score of `GAGCCACC` is reported as -0.284.
With `GCTGTGCA` the E-score was -0.283.
`AAGTGCGA` has an E-score of -0.0766.

Sample 3
Target: Interferon regulatory factor 5, full length, phosphomimetic (IRF5, Homo sapiens, UniProt Q13568-2, residues 1-514, K96S/S451D/S453D/S456D/S462D)
Method: protein-binding microarray
Form: double-stranded DNA, one strand shown
Matrix: in vitro
Concentration: 250 nM
Notes: 60-bp whole probe
Together with: salmon DNA 0.4 mg/ml
Baseline: random background probes
Direction: higher = stronger binding
Shared flanks, not repeated: GCCTAGCAC … GTCTTGATTCGCTTGACGCTGCTG
For `GACGGTATCGGACAGGGGACGTGCTAG`, the log fluorescence was 0.835 z-score.
The log fluorescence of `TTAGGACTGCTTCGCCTTTAGTGCTAG` is reported as -0.142 z-score.
With `GACGGACTGGGGCTCGGGACGTGCTAG` the log fluorescence was -0.562 z-score.
The log fluorescence of `GACGGACTGGATTTCGGGACGTGCTAG` is reported as 0.72 z-score.
`CCCACTTTCAGTTCTCCCTTGTGCTAG` gave a log fluorescence of 7.17 z-score.
`GACGGTCTCGGTCTCGGGCCGTGCTAG` has a log fluorescence of 0.0951 z-score.
With `GACGAGCTGAGTTTCGAGACGTGCTAG` the log fluorescence was 4.43 z-score.
`ACAGCTCACGCTTTGGAAAGGTGCTAG` has a log fluorescence of -0.275 z-score.
With `GACGGACTGGACTATCGAGACGTGCTA` the log fluorescence was 0.82 z-score.
With `TCAAATGTCCTCCTCTCACTGTGCTAG` the log fluorescence was -0.16 z-score.
`GACGGTTTCGGTTCCGGAACGTGCTAG` gave a log fluorescence of 9.96 z-score.
The log fluorescence of `CACGGTCTCCTTATCCTGACGTGCTAG` is reported as -0.19 z-score.
For `GACAGACTGGACTTTCGGGACGTGCTA`, the log fluorescence was 4.75 z-score.
`GAGGTTTTCTAATGTTTTTTAGTGCTA` gave a log fluorescence of 0.692 z-score.
With `ATTCCTTTGCCTCCAGGCGCGTGCTAG` the log fluorescence was -0.0152 z-score.
`TTAGATATCGGGTCTCGATTAGTGCTA` gave a log fluorescence of 1.87 z-score.
The log fluorescence of `TCATGTTTCCATCTCTCACTGTGCTAG` is reported as 1.39 z-score.
`TTAGGACTGGGTTTCCGTTAGTGCTAG` has a log fluorescence of 0.207 z-score.
`CCTCATCTTCCTCTGCCACAGTGCTAG` has a log fluorescence of 0.267 z-score.
`GACGGACTGGGTCTCGGTACGTGCTAG` has a log fluorescence of -0.381 z-score.
With `TTAGGTTCACTTTTCCTTTAGTGCTAG` the log fluorescence was 0.88 z-score.
With `GACGGTTTCGGTACTGGGGACGTGCTA` the log fluorescence was 8.8 z-score.
The log fluorescence of `GAGGAGGGGCTGTTACTCTCGTGCTAG` is reported as -0.355 z-score.
With `GATGGTATCCTTCTCCTGACGTGCTAG` the log fluorescence was 0.157 z-score.
The log fluorescence of `TTAGGACTCGGACTGGGTTAGTGCTAG` is reported as -0.392 z-score.

Sample 4
Target: RNA binding protein fox-1 homolog 2, RRM domain, GST-SBP tag (RBFOX2, Homo sapiens, UniProt O43251-10, residues 100-194)
Method: RNA Bind-n-Seq
Form: RNA
Matrix: in vitro
Concentration: 365 nM
Notes: natural RNA segment, single round, ends assumed
Baseline: no-protein control
Direction: higher = stronger binding
Shared flanks, not repeated: GGGAGUUCUACAGUCCGACGAUC … UGGAAUUCUCGGGUGCCAA
Construct (chain): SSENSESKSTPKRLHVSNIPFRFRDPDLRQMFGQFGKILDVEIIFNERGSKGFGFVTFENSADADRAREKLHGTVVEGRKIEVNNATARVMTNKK
`UGACUUCUUCCUUUCACUGCUGUUUAUAAAAUGUGUAAUGAAUUCUAACAACUCAAAUUUUGCUUUUUGAAGCUGUAUUUUUAAGUUAAGAAAAUAUAUUUUUGGUAUAA` — result for “RBNS enrichment (R)”: 1.11.
`ACCCUUAAUGGUGACAGACUCCUGGGCCUGCCACCUUGGACUUCCCUUAGGCUCACAGUUCAGAUCUGCAUGCAUUGCUUGCAUUGUUCUGGUAUCUGAAUGUUGAUUCC`: “RBNS enrichment (R)” 1.89.
For `ACUGCAAAUUUAAGUCAGCAUUUUUAGGACAGAGUGCUUGGAGAAGUGCUUUUUUGCAGUCUCCUUUGUUGCUGAUUUCAUGUGUCCGAUUCCUUCUGUAUGUCAUUCUU`, “RBNS enrichment (R)” read 0.478.
Under “RBNS enrichment (R)”, `CCAUGCUCCUCUCAUGGGUUUCUUCCCACCUAGCCAGUGCCUUCAUUUGCUUGUUGUACAGUUUCUUGUAGUUUAUUUUUUAAUAGAUUUGAAUAAAACCUAAAUAGCGC` is recorded as 2.22.
Under “RBNS enrichment (R)”, `UCCCCUAGUAGAAGCAGGUUCUUGGAAGUUACAAUUUAAGGUACCCCCAAAAAGUUGGAAAUAAAAGGAAACAAAUUUGAACAACGAAGCACCCUGUGACAUGCCGACGC` is recorded as 0.279.
For `UAGGGUGCCCACAGCCUCUUUUGCAGAGGUCUGACUGGGAGGGCCCUGGCAGCCAUGUUUAGGAAACACAGUAUACCCACUCCCUGCACCACCAGACACGUGCCCACAUC`, “RBNS enrichment (R)” read 0.319.
`CACUUACUAACUGCCAGUUCUCCAGCACUGAGGUGGGGCAGAUAACGGGGCAUAUUUAAGGGGGCAUCUUUGUGUAAAAGAUGCAUGGAGUCAGGAGAAAACCACCUUCA` — result for “RBNS enrichment (R)”: 0.318.
Under “RBNS enrichment (R)”, `AAUGUUCACCCUUCCAAGAUCUUAUAUUAAAGAAAAAAUUUUAAAAAGCUUAUAUAUUUGUAGCAAAGUUAUUCUUAAAUAUGAAUUAUGUUAUAACUUAGUGACUUUUG` is recorded as 1.03.
`GACUUGCGGUUAAUUAUGCAAAUGAUAGUUUGUGAUAAUUGGUCCAGUUUUACGAACAACAGAUUUCUAAAUUAGAGAGGUUAACAAGACAGAUGAUUACUAUGCCUCAU`: “RBNS enrichment (R)” 0.317.
`AUGCCAGGCUGGUGCAGAUGGAGGUCCUCAUGAAUAAGCGCUGUGUUUGAUGGGGUCUGGGACUGCACACUGUCAGUAUAUUAGGCACGUGGGCCAGCUGGGGUGGGUUU` — result for “RBNS enrichment (R)”: 0.997.
`GUGUGCCCGGAUGCAUGGAUGCCUGGGUUCCUAGAUGCAUAGAUGCCUGGGUGCCUGGAUGCAUGGAUGCCUGGGUGCCCGGAUGCAUGGAUGCAUGGGUGCCCGGAUGC` — result for “RBNS enrichment (R)”: 18.9.
`UCCCACCCUCAGUCCCCAUGUUAGUCUUGGUUGUGCCUGUCUUUAACCACAGCCUCACAGCUGGUCUCUGGCAGUGGUUAGGACAGGCGGGAGCAACCACAAUCAAACCU` — result for “RBNS enrichment (R)”: 0.227.

Sample 5
Observed: peptide binding
Form: peptide
Matrix: yeast competitive growth
Together with: B2-Cln2 chimera
Direction: direction not given
For `QDYERRLLRQIVIQNE`, the enrichment score was -0.226.
The enrichment score of `CFRCLLFSFSGRSGVE` is reported as -1.55.
For `ALLRRLQDVANDRGSH`, the enrichment score was -0.897.
With `RVSGLLSWTLSRVLWL` the enrichment score was -0.946.
The enrichment score of `RSLKLDGLLEEN` is reported as -0.157.
For `IQKKLRFEDTLEFVGF`, the enrichment score was -0.121.
With `SDSTVTKLDFDLEP` the enrichment score was 1.39.
`LAKRALKYTD` gave an enrichment score of -0.252.
`LKGRRLVFDN` gave an enrichment score of 0.203.
With `TSSAQRRLEIPSGGAD` the enrichment score was -0.65.
With `VLLKRLQDVVSERANH` the enrichment score was -0.951.
`EPKTLFLGAGDFQF` has an enrichment score of 1.15.

Excerpt of the above (sample 2):
`CTATCTTC` has an E-score of 0.144.
The E-score of `GCGTCACC` is reported as -0.293.
The E-score of `CAATATGG` is reported as 0.18.
The E-score of `CATAACCG` is reported as 0.129.
For `AAGGTAGG`, the E-score was 0.0326.
`CGGGTCAG` gave an E-score of -0.237.
